Assay results gathered from unrelated publications.
Numbered parts are unrelated; each lists some results of a single study.
UniProt Q9UF33, sequence (whole entry, looked up): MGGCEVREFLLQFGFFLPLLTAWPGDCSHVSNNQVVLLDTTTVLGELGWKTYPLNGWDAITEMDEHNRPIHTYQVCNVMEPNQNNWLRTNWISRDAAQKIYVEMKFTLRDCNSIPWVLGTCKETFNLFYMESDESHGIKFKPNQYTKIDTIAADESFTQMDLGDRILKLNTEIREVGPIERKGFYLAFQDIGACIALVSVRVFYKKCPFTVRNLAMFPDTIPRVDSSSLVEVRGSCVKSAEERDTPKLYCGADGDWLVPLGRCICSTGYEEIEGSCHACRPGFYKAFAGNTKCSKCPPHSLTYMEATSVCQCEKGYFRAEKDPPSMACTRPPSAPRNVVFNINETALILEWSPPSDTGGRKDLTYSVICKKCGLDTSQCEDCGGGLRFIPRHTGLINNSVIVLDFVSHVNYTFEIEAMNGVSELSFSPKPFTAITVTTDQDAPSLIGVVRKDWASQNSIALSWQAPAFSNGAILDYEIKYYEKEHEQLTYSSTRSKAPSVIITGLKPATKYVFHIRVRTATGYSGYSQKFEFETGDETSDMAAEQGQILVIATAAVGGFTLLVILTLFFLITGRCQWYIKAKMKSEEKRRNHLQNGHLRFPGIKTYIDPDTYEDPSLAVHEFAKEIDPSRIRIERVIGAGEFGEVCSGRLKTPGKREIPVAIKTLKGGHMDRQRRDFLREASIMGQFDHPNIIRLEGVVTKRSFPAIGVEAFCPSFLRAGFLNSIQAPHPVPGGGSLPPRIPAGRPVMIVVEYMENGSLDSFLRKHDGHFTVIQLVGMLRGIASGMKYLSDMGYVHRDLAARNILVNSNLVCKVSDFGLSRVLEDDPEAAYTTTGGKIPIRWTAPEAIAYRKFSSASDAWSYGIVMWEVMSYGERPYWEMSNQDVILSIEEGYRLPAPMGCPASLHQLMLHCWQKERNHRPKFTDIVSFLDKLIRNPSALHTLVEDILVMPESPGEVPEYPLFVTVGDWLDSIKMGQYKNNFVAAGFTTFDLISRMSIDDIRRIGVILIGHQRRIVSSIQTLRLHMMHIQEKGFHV
UniProt Q9HBY8, sequence (whole entry, looked up): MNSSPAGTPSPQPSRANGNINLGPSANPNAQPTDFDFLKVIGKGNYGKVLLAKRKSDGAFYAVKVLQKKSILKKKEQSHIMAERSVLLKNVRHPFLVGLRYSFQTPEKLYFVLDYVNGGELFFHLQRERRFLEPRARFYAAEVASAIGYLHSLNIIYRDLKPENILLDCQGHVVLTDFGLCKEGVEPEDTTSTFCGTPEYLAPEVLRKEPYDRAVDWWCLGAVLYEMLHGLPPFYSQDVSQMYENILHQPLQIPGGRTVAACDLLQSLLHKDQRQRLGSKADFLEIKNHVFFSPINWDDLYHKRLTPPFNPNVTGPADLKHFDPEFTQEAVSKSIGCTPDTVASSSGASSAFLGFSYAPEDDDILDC
UniProt O14965, sequence (whole entry, looked up): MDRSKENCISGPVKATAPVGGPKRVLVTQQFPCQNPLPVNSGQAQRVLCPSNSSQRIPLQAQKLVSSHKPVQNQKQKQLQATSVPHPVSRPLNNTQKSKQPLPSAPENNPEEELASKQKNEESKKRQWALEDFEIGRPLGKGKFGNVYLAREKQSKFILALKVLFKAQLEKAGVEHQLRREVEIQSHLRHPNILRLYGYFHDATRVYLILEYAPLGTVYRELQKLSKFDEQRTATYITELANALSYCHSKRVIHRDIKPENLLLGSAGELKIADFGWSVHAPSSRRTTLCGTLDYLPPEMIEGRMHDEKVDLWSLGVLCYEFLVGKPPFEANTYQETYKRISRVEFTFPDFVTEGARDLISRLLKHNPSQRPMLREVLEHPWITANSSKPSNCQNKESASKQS
UniProt Q9P0L2, sequence (whole entry, looked up): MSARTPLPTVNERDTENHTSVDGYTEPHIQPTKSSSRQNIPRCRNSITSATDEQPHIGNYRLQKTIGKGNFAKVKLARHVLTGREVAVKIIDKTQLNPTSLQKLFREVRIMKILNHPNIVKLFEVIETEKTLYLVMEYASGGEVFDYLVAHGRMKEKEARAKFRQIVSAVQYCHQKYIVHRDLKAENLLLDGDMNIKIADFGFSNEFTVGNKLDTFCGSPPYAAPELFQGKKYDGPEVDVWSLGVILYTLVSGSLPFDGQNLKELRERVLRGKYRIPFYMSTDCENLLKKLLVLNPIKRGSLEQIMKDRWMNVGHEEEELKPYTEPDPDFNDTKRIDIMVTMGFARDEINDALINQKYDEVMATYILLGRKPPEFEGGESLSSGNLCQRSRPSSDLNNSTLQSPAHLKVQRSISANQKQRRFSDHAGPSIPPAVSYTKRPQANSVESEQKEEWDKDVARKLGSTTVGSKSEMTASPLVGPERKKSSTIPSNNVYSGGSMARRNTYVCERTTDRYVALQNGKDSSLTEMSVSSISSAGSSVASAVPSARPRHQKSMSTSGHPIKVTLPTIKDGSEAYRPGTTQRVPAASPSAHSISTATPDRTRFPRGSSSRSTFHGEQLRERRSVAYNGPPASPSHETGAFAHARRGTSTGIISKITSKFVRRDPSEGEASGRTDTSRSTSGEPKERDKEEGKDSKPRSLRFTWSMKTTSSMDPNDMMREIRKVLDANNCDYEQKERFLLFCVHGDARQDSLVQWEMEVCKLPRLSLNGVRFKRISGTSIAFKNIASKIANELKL
UniProt P07947, sequence (whole entry, looked up): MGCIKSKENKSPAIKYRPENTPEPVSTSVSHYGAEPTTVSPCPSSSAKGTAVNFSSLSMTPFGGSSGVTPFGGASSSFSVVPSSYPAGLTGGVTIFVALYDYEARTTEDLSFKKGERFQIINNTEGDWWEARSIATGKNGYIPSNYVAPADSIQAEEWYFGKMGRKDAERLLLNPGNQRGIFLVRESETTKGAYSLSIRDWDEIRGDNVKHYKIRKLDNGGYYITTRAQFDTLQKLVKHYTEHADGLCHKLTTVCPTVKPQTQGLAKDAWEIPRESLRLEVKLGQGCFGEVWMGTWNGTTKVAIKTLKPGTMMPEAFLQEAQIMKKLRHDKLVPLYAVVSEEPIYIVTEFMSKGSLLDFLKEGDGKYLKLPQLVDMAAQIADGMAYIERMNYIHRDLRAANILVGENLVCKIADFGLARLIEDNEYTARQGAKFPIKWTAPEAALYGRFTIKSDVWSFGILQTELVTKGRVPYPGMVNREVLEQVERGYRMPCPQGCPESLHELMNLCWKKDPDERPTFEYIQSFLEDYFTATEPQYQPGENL
UniProt P09619, sequence (whole entry, looked up): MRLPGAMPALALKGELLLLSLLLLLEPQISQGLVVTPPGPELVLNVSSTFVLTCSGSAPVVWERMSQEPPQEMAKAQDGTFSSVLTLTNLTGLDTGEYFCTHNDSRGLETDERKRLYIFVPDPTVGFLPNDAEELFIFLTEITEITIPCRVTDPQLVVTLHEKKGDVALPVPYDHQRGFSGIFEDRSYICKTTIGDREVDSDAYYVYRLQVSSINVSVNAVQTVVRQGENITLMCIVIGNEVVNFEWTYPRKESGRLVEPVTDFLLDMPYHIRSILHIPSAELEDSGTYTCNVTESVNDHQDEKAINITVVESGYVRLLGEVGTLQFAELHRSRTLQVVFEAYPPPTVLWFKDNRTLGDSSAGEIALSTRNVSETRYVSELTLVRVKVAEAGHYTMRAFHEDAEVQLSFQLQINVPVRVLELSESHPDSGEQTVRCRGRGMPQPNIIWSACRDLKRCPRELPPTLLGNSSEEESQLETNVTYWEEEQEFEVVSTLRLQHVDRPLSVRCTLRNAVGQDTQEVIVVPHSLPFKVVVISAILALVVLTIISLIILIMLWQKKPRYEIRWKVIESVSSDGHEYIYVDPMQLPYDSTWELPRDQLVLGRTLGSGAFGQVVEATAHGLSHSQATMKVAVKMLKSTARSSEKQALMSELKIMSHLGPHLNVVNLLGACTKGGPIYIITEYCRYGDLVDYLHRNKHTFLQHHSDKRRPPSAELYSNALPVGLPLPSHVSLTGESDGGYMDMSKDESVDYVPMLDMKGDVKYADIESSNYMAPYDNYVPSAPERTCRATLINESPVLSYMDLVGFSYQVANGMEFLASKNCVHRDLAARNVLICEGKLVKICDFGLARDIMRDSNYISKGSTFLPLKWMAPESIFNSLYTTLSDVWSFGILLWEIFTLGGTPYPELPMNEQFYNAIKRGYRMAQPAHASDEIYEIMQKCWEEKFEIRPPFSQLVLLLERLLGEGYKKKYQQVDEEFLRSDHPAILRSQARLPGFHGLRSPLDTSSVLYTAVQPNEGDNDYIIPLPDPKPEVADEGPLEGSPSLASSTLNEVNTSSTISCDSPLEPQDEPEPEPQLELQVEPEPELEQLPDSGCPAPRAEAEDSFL
UniProt Q09013, sequence (whole entry, looked up): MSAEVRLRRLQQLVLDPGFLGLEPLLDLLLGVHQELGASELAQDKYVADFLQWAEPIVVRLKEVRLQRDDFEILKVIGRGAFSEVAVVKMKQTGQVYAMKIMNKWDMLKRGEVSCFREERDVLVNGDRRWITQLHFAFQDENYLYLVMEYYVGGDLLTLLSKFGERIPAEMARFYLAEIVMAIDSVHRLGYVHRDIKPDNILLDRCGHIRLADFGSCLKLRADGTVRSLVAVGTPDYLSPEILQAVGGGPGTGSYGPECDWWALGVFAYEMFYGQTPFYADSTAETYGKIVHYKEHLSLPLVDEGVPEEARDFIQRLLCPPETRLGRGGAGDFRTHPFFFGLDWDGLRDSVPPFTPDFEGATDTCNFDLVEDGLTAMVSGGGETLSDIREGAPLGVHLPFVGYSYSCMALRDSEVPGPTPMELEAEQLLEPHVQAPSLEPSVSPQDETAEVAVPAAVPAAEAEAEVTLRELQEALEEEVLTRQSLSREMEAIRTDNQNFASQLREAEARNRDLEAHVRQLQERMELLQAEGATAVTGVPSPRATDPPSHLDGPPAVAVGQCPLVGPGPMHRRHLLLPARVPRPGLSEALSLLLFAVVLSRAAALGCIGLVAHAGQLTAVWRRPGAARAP

Series 1
Compound: CCC(=O)N[C@@H]1CC[C@H](C(=O)N(C)c2ccc(-c3nc4ccccc4o3)cc2)C1
Read-out: cell-free assay
Technique: competition with immobilised ligand
Concentration: 1 µM
Quantity: remaining binding
EPHA5 (Homo sapiens, UniProt P54756): 100%
PDGFRB (Homo sapiens, UniProt P09619): 98%
PRKD3 (Homo sapiens, UniProt O94806): 100%
MAP3K13 (Homo sapiens, UniProt O43283): 100%
FRK (Homo sapiens, UniProt P42685): 100%
DMPK (Homo sapiens, UniProt Q09013): 100%
SBK1 (Homo sapiens, UniProt Q52WX2): 100%
MAPK1 (Homo sapiens, UniProt P28482): 88%
PAK2 (Homo sapiens, UniProt Q13177): 86%
KIT (Homo sapiens, UniProt P10721, A829P): 100%
EGFR (Homo sapiens, UniProt P00533, L858R): 100%
Aurora kinase A (AURKA, Homo sapiens, UniProt O14965): 100%
MAPK15 (Homo sapiens, UniProt Q8TD08): 100%

Series 2
Target: TAR DNA-binding protein 43, full length, His tag (TARDBP, Homo sapiens, UniProt Q13148, residues 1-414)
Technique: RNA Bind-n-Seq
Form: RNA
Sample: in vitro
Concentration: 20 nM
Notes: 6-mer, flanks averaged, single round
Added: 150 mM KCl
Baseline: input library
Reading: higher = stronger binding
Quantity: 6-mer enrichment (R)
CAUUGA: 0.615
UGUGUA: 1.11
GCCAGA: 0.973
GUCGUU: 0.716
GGGGAA: 4.29
CUGGAA: 0.821
ACCUGG: 0.937
AACGCA: 0.665

Series 3
Compound: Cn1cc(/C=C2\C(=O)Nc3ccc(S(N)(=O)=O)cc32)c2ccccc21
Read-out: enzyme activity
Action: inhibitor
Concentration: 0.5 µM
Baseline: control
Quantity: remaining activity
FLT1 (Homo sapiens, UniProt P17948): 70.1%
JAK1 (Homo sapiens, UniProt P23458): 83.9%
PRKCQ (Homo sapiens, UniProt Q04759): 103%
SGK2 (Homo sapiens, UniProt Q9HBY8): 80.7%
DYRK1A (Homo sapiens, UniProt Q13627): 92.2%
EPHA2 (Homo sapiens, UniProt P29317): 93%
YES1 (Homo sapiens, UniProt P07947): 24.2%
EPHB3 (Homo sapiens, UniProt P54753): 93.2%
ERBB2 (Homo sapiens, UniProt P04626): 120%
Cyclin-dependent kinase 5, with p35 (CDK5, Homo sapiens, UniProt Q00535): 55.8%
EPHA6 (Homo sapiens, UniProt Q9UF33): 30.2%
PRKCZ (Homo sapiens, UniProt Q05513): 105%
PAK4 (Homo sapiens, UniProt O96013): 86.2%
MARK1 (Homo sapiens, UniProt Q9P0L2): 40.4%

Other studies, line by line
CCOC(=O)[C@@H]1CSCC(=O)N[C@H](CC)C(=O)N(C)[C@@H](C)C(=O)N[C@@H](CC(C)C)C(=O)N2CCC[C@H]2C(=O)N(CC(C)C)CC(=O)N[C@@H](CC(C)C)C(=O)N(C)[C@H](C)C(=O)N[C@@H](CC(C)C)C(=O)N1C
logD (hydrocarbon/water): 0.724

A few entries again (series 3):
FLT1 (Homo sapiens, UniProt P17948): 70.1%
JAK1 (Homo sapiens, UniProt P23458): 83.9%
EPHB3 (Homo sapiens, UniProt P54753): 93.2%
SGK2 (Homo sapiens, UniProt Q9HBY8): 80.7%
DYRK1A (Homo sapiens, UniProt Q13627): 92.2%
